Experimental data gathered from unrelated publications.
Each line is one published result; not all experiments were run side by side. Values joined by “and” are separate records of one study, mostly repeats; a detail may differ. Numbers after ± are the reported error.
UniProt Q8VEB4, sequence (whole entry, looked up): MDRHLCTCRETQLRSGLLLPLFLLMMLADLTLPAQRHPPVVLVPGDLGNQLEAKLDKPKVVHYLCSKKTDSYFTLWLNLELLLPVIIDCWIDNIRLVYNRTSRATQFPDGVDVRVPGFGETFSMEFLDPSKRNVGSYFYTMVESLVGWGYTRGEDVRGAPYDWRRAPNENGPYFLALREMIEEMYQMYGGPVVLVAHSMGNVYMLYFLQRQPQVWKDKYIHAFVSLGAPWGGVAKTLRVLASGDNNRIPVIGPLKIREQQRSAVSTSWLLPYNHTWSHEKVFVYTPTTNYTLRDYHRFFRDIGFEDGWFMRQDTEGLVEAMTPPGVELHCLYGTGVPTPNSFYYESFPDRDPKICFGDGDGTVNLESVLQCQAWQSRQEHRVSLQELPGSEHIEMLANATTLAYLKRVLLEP
UniProt Q9UM07, sequence (whole entry, looked up): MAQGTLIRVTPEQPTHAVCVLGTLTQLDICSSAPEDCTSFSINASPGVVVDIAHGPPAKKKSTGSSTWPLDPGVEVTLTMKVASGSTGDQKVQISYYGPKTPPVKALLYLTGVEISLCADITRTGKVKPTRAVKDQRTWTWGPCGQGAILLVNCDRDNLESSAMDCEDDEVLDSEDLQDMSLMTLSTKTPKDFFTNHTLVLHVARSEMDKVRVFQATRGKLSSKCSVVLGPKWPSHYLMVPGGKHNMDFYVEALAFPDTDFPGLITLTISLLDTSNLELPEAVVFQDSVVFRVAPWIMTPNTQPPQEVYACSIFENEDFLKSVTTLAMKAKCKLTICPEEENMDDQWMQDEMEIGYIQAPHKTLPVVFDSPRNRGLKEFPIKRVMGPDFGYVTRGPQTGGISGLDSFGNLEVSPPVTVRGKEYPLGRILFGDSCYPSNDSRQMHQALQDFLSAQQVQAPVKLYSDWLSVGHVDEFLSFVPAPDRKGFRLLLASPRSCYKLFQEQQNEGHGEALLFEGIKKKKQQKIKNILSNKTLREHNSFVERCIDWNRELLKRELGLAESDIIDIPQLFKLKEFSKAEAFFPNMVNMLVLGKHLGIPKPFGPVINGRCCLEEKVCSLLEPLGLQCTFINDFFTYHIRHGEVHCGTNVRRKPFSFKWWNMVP
UniProt Q9UH17, sequence (whole entry, looked up): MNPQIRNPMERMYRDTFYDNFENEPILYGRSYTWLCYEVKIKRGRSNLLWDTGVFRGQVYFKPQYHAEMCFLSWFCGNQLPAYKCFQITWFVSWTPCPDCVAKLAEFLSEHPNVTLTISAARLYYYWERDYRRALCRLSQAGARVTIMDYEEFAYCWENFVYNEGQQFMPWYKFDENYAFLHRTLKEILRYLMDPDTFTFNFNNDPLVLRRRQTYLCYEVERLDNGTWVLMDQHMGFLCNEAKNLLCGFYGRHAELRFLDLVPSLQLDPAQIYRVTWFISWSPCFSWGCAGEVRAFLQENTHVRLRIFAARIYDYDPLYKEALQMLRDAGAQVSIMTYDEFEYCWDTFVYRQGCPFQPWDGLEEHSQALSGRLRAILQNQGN
UniProt P45983, sequence (whole entry, looked up): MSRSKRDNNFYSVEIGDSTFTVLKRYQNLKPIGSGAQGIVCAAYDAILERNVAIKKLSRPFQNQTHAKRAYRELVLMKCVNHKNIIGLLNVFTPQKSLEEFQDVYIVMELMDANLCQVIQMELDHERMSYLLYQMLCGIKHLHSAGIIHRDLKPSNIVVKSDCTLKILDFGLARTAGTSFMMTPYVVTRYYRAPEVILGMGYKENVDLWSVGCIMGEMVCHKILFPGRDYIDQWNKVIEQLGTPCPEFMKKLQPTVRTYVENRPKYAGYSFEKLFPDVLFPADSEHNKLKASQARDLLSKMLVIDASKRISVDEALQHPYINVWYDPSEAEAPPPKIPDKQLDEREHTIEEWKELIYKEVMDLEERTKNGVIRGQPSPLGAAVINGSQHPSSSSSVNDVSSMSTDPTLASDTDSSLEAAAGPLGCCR
UniProt P25101, sequence (whole entry, looked up): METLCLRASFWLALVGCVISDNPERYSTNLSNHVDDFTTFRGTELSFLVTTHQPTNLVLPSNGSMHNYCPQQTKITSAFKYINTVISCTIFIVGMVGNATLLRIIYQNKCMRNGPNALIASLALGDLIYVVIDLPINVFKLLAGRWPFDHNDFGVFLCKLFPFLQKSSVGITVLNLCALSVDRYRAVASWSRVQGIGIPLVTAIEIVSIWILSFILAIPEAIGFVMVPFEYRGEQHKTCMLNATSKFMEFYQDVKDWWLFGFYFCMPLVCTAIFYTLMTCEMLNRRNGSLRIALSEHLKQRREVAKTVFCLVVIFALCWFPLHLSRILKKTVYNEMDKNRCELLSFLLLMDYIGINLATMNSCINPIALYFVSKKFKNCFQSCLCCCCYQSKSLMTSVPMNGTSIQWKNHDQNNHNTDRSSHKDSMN
UniProt P33913, sequence (whole entry, unmodified, looked up): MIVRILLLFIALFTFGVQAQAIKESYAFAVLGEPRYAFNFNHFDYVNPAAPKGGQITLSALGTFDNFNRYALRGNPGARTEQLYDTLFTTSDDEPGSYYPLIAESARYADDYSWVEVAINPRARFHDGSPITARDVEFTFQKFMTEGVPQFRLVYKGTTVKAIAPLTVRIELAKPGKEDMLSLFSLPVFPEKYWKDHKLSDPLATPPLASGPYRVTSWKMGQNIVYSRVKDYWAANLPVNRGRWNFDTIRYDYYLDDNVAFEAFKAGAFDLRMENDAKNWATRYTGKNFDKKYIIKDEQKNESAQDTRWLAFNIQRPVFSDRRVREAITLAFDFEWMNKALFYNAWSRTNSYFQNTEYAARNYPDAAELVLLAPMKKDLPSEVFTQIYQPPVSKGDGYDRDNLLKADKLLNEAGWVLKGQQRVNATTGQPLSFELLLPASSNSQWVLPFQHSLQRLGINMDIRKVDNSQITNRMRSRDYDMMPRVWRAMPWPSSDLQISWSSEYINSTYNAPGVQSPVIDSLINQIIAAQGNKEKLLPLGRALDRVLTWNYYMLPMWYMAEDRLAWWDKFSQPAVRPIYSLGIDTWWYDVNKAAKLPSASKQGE
UniProt Q6V1X1, sequence (whole entry, looked up): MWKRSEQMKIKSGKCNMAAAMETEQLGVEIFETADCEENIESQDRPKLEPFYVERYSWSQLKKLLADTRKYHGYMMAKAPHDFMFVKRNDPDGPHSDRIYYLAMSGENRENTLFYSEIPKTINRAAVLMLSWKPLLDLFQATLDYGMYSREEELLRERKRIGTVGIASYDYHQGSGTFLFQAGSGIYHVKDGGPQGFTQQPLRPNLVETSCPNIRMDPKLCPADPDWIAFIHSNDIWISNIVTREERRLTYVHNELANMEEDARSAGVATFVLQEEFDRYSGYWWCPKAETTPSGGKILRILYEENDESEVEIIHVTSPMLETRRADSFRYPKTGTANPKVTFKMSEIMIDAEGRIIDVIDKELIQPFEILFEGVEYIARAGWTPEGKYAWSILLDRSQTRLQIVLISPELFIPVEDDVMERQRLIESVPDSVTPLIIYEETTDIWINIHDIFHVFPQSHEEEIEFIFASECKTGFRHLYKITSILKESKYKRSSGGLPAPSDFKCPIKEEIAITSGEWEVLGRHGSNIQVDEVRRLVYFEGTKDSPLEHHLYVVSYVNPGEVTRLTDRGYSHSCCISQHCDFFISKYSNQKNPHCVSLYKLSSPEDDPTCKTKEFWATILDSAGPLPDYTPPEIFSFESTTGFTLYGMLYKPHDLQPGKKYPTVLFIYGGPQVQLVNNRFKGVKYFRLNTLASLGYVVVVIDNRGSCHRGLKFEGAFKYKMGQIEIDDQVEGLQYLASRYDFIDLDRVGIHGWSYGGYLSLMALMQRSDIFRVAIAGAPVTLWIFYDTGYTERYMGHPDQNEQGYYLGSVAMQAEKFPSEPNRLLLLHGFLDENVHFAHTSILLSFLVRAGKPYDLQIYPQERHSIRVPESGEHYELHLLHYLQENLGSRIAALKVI
UniProt Q6DWJ6, sequence (whole entry, looked up): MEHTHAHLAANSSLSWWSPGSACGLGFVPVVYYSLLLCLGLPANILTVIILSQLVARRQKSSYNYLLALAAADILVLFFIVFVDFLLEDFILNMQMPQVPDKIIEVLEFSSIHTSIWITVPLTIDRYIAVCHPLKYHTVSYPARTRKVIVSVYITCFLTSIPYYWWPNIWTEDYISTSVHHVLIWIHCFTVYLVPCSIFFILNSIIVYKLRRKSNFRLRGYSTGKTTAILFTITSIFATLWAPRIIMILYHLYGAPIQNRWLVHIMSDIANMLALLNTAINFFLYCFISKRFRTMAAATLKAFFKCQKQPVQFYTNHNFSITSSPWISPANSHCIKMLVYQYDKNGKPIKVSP
UniProt Q704Y3, sequence (whole entry, unmodified, looked up): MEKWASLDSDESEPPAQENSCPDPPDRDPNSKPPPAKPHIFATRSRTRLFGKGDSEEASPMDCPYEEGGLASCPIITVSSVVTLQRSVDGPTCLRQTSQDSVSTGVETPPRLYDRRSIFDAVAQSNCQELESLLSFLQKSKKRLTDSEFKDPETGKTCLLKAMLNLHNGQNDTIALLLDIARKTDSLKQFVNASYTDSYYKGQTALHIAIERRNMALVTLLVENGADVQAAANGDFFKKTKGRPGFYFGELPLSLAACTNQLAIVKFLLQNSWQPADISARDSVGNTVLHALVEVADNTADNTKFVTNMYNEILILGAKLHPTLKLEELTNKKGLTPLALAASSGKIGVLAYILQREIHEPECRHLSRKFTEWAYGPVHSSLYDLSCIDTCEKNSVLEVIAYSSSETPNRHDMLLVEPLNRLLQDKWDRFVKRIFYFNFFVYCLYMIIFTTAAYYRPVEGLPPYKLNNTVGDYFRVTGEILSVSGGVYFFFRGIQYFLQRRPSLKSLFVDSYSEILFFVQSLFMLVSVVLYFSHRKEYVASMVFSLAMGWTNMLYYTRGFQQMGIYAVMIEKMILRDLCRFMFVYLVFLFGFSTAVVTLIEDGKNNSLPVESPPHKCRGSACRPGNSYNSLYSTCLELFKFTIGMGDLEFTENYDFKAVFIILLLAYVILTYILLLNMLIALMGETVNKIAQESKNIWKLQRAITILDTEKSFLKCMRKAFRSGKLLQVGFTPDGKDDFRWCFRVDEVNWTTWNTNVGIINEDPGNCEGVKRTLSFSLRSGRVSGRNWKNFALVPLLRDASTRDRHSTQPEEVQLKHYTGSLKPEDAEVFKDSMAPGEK

CCCCC/C=C\C/C=C\C/C=C\C/C=C\CCCC(=O)NCCc1ccc(O)c(O)c1  maximal open probability (Trpv1 (Mus musculus, UniProt Q704Y3, Y512F); ion current, agonist, whole-cell patch clamp; Y512F; relative to: 3 mM 2-APB): 1.02 ± 0.16
O=C(N[C@@H]1c2ccccc2C[C@H]1N1CCCC1)c1ccc(-c2ccnc3[nH]ccc23)nc1  remaining binding (eIF-2-alpha kinase GCN2, C-terminal kinase domain (EIF2AK4, Homo sapiens, UniProt Q9P2K8, S808G); binding, competition with immobilised ligand; 3 µM): 0%
CC(C)CC(O)(CC(C)C)c1cn(C(=O)N2CCCC2)nn1  activity ratio-of-ratios (Lysosomal phospholipase A and acyltransferase (Pla2g15, Mus musculus, UniProt Q8VEB4); probe labelling, inhibitor, measured: Lypla3; mouse, brain; i.p., 0.8 mg/kg, 4 h, single peptide; relative to: treated over vehicle mice, lower = stronger inhibition): 1.92 and 1.36 and 2 and 1.73 and 1.99
O=C(CCNC(=O)c1ccsc1)Nc1cccc(Oc2ccc(Cl)cc2)c1  Z-score (S/C (Hepatitis B virus genotype D subtype ayw, UniProt P03138+P03146); LHBs-HBc interaction, inhibitor, NanoBRET; transfected HepG2; 10 µM; direction not given): -1.24
C=CC(=O)Nc1cc(-c2ccc(C(=O)N3CCCC(O)(CC)C3)cc2)ccc1F (centres unmarked)  adducted protein (DNA dC->dU-editing enzyme APOBEC-3B, C-terminal domain (Homo sapiens, UniProt Q9UH17); covalent adduct, intact protein MS; 3 h, 10-fold excess, 250 µM): 60% and 47%
CCc1nnc(-c2c(OC)cc(-c3cnc4cc(-c5cnn(C)c5)ccn34)cc2OC)o1  remaining binding (HRH2 (Homo sapiens, UniProt P25021); antagonist radioligand, radioligand binding; 10 µM, SafetyScreen44 H2 mean; lower = stronger displacement): 107%
CCC1(CC)C(=O)N(c2cccc(CN3CCc4cc5c(cc4C3)OCO5)c2)C1=O  selectivity ratio (Dipeptidyl peptidase 8 (Homo sapiens, UniProt Q6V1X1); inhibitor; added: GP-AMC substrate; relative to: Ki' DPP9 over Ki' DPP8): 4
C[C@H](NCc1ccc(-c2ccc(C(F)(F)F)cc2)cc1)C(N)=O  inhibition (HTR2C (Homo sapiens, UniProt P28335); radioligand binding, SafetyScreen panel; 1 µM, species human, added: 1.0 nM [3H]Mesulergine): -5%
O=c1[nH]c2ccccc2c(=O)o1  selectivity ratio (Rhomboid protease AarA (Providencia stuartii, UniProt P46116); relative to: IC50 chymotrypsin over IC50 AarA): 0.03
CSCC[C@H](NC=O)C(=O)N[C@@H](CCCNC(=N)N)C(=O)N[C@H](C(=O)NCC(=O)N[C@@H](CC(N)=O)C(=O)N[C@@H](C)C(=O)N[C@@H](CC(N)=O)C(=O)NCC(=O)NCC(=O)N[C@@H](CCCCNC(=S)Nc1ccc2c(c1)C(=O)OC21c2ccc(O)cc2Oc2cc(O)ccc21)C(=O)O)[C@@H](C)O  affinity relative to wild type (Uncharacterized protein YejA (yejA, Escherichia coli, UniProt P33913, S499A); ligand, fluorescence polarization; relative to: wild-type YejA): 2.5 fold
CN(C)[C@H]1C[C@@]23CC[C@@]4(O2)C(=CC[C@]2(C)[C@@H](c5ccc6ccncc6c5)CC[C@H]24)C=C3[C@@H](O)[C@@H]1O  inhibition (MAP3K4 (Homo sapiens, UniProt Q9Y6R4); ATP probe labelling, inhibitor, KiNativ profiling; 0.1 µM): 16.7%
C#CCCCCOc1ccc2c(c1)CCCN2C(=O)CCl  reactivity ratio (mRNA turnover protein 4 homolog (Homo sapiens, UniProt Q9UKD2); mass spectrometry profiling, measured: MRTO4; H460 cell lysate; 100 µM over 10 µM, UniProt Q9UKD2; relative to: high over low concentration): 1.43
CC[C@H](C)[C@H](NC(=O)[C@H](CCCNC(=N)N)NC(=O)[C@H](CCCNC(=N)N)NC(=O)[C@H](CC(C)C)NC(=O)[C@H](Cc1ccccc1)NC(=O)CNC(=O)CNC(=O)[C@@H](N)Cc1ccc(O)cc1)C(=O)N[C@@H](CCCNC(=N)N)C(=O)N1CCC[C@H]1C(=O)N[C@@H](CCCCN)C(=O)N[C@@H](CC(C)C)C(=O)N[C@@H](CCCCN)C(=O)O  Emax (GPR139 (Homo sapiens, UniProt Q6DWJ6); Gαq activation, agonist, BRET; HEK293T/17; 40 µM): 76.7%
CC(C)C[C@H](NC(=O)[C@H](CCCNC(=N)N)NC(=O)[C@H](Cc1ccccc1)NC(=O)[C@H](Cc1ccccc1)NC(=O)[C@@H](NC(=O)[C@H](CO)NC(=O)[C@H](CC(C)C)NC(=O)[C@@H](N)CO)[C@@H](C)O)C(=O)N[C@@H](Cc1ccccc1)C(=O)N[C@@H](CC(N)=O)C(=O)N[C@@H](CCCNC(=N)N)C(=O)N[C@@H](CO)C(=O)N[C@@H](Cc1ccccc1)C(=O)N[C@H](C(=O)N(C)[C@@H](CCC(N)=O)C(=O)N[C@@H](C)C(=O)O)[C@@H](C)O  activation (Histidine kinase ComD (Streptococcus mutans serotype c, UniProt Q8DS94); Streptococcus mutans; 10 µM): 100%
N[C@H](C(=O)N1CCCC1)C1CCN(c2nccc3c(-c4ncc(Cl)cc4Cl)cccc23)CC1  kcat (PADI4 (Homo sapiens, UniProt Q9UM07); enzyme activity; 0.03932 µM, low-affinity site, added: Ca2+ 0.25 mM): 0.405 s⁻¹ and 0.371 s⁻¹
CCOC(=O)[C@@H]1Cc2c(cc([N+](=O)[O-])cc2[N+](=O)[O-])[C@H](O)[C@]12C(=O)Nc1ccc(Br)cc12  remaining binding (MAPK8 (Homo sapiens, UniProt P45983); KINOMEscan; 100 nM; relative to: DMSO control): 100%
CN(C)CCCSC(=S)N1CCN(C(=O)/C=C/c2coc3ccccc3c2=O)CC1  MST response (Nucleoprotein (N, Tomato spotted wilt virus, UniProt P25999, Y184A); binding, microscale thermophoresis; 250 µM; dose series): 851 a.u.
Cc1cc(Nc2nc(C[C@@]3(C(=O)O)CCN(Cc4cccc(Cl)c4F)[C@H](C)C3)cc(C)c2F)[nH]n1  activation (EDNRA (Homo sapiens, UniProt P25101); agonist; 10 µM): -1.05%
CC(C)[C@H]1NC(=O)C[C@H]2/C=C/CCSSC[C@@H](NC1=O)C(=O)N[C@H](Cc1cccc3ccccc13)C(=O)NCC(=O)O2  inhibition (Cyclin-dependent kinase 2, with cyclin A2 (CDK2, Homo sapiens, UniProt P24941); enzyme activity, inhibitor; 10 µM): -6.4%
CS(C)(=O)=Nc1ccc(-c2ccc(-c3nc4cc(O[C@@H]5CO[C@H]6[C@@H]5OC[C@H]6O)[nH]c4cc3F)cc2)cc1  inhibition (NPY2R (Homo sapiens, UniProt P49146); ligand displacement, radioligand; 10 µM): -8%
COCC1CCCCN1C(=O)n1cc(C(O)(c2ccccc2)c2ccccc2)nn1 (centres unmarked)  SILAC activity ratio (Alpha/beta hydrolase domain-containing protein 17B (Abhd17b, Mus musculus, UniProt Q7M759); probe labelling, inhibitor, competitive ABPP-SILAC, measured: Fam108b1; mouse T cells; concentration not given, 4 h, protein level; relative to: treated over DMSO cells, lower = stronger inhibition): 1.17
O=C1NC(=O)c2c1c1cc(F)c[n+]3c1c1c2c2cc(O)ccc2[n]1[Ru-4]312([N]=C=S)[S+]3CC[S+]1CC[S+]2CC3 (centres unmarked)  remaining activity (HIPK1 (Homo sapiens, UniProt Q86Z02); enzyme activity; 100 nM, human enzyme, added: 10 µM ATP; relative to: untreated): 35%
CCN1CCN(C2CCN(C(=O)COc3ccc(-c4ccc(OC)cc4)cc3)CC2)CC1  IC50 (uncharacterized protein (Apis mellifera, UniProt A0A7M6W5G5); enzyme activity, inhibitor, Ellman; up to 1000 µM, pH 7.4, 30 °C, added: 1 mM acetylthiocholine): inactive

Excerpt of the above:
CN(C)CCCSC(=S)N1CCN(C(=O)/C=C/c2coc3ccccc3c2=O)CC1  MST response (Nucleoprotein (N, Tomato spotted wilt virus, UniProt P25999, Y184A); binding, microscale thermophoresis; 250 µM; dose series): 851 a.u.
Cc1cc(Nc2nc(C[C@@]3(C(=O)O)CCN(Cc4cccc(Cl)c4F)[C@H](C)C3)cc(C)c2F)[nH]n1  activation (EDNRA (Homo sapiens, UniProt P25101); agonist; 10 µM): -1.05%
CC(C)[C@H]1NC(=O)C[C@H]2/C=C/CCSSC[C@@H](NC1=O)C(=O)N[C@H](Cc1cccc3ccccc13)C(=O)NCC(=O)O2  inhibition (Cyclin-dependent kinase 2, with cyclin A2 (CDK2, Homo sapiens, UniProt P24941); enzyme activity, inhibitor; 10 µM): -6.4%
CS(C)(=O)=Nc1ccc(-c2ccc(-c3nc4cc(O[C@@H]5CO[C@H]6[C@@H]5OC[C@H]6O)[nH]c4cc3F)cc2)cc1  inhibition (NPY2R (Homo sapiens, UniProt P49146); ligand displacement, radioligand; 10 µM): -8%
